{"data": "Results gathered from unrelated publications", "note": "A part holds a random share of what one study measured."}
{"data": "Block 1", "target": "Ras GTPase-activating protein-binding protein 1, full length (G3BP1, Homo sapiens, UniProt Q13283)", "technique": "RNA Bind-n-Seq", "molecule type": "RNA", "medium": "in vitro", "concentration": "200 nM", "notes": "whole 134-nt RNA, ends assumed", "added": "150 mM KCl", "relative to": "input library", "reading": "higher = stronger binding", "chain of UniProt Q13283 (whole entry, looked up)": "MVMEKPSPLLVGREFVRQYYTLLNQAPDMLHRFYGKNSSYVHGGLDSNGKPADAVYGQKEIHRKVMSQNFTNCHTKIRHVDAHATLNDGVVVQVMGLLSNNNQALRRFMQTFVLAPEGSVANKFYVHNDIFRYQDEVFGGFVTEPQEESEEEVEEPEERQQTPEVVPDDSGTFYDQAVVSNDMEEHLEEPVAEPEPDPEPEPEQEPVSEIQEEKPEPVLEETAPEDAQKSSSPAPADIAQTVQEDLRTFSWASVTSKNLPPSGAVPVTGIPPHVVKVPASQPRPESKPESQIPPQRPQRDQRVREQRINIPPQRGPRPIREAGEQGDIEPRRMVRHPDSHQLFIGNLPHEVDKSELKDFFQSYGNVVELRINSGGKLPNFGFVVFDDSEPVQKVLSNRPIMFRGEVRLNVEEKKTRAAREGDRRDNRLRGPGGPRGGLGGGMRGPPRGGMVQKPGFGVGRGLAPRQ"}
{"Sequence": "GGGAGUUCUACAGUCCGACGAUCCCUCAAGUCCUGUGCUACACAUCGUAUGUACCGAAUCGGUUUUUGGUGGUGGAAAGUAUUAUGUUACGCCGUUCGGAUCUGCACUUCCAGUGGAAUUCUCGGGUGUCAAGG", "log2 enrichment": -0.0475}
{"Sequence": "GGGAGUUCUACAGUCCGACGAUCUCAAGUCCUGUGCUACACAUCGUAUGUACCGAAUCGGUUUUGGUUUUGGUUUUGGAAAGUAUUAUGUUACGCCGUUCGGAUCUGCACUUCUGGAAUUCUCGGGUGUCAAGG", "log2 enrichment": -1.18}
{"Sequence": "GGGAGUUCUACAGUCCGACGAUCUCAAGUCCUGUGCUACACAUCGUAUGUACCGAAUCGGUUUUUUUGGUGGUUUGGAAAGUAUUAUGUUACGCCGUUCGGAUCUGCACUUCCUGGAAUUCUCGGGUGUCAAGG", "log2 enrichment": -1.09}
{"Sequence": "GGGAGUUCUACAGUCCGACGAUCUGCUUCUCUAUGGAAAGGACUUUCCCCCAAGCUGGACGAGGCAUUAAGAAGGAUAGAGGACUCCAGCAGGCUGACUCUACACUUCAUCAUUGGAAUUCUCGGGUGUCAAGG", "log2 enrichment": 0.343}
{"data": "Block 2", "target": "RNA binding protein fox-1 homolog 2, RRM domain, GST-SBP tag (RBFOX2, Homo sapiens, UniProt O43251-10, residues 100-194)", "technique": "RNA Bind-n-Seq", "molecule type": "RNA", "medium": "in vitro", "concentration": "365 nM", "notes": "natural RNA segment, single round, ends assumed", "relative to": "no-protein control", "reading": "higher = stronger binding", "Construct (chain)": "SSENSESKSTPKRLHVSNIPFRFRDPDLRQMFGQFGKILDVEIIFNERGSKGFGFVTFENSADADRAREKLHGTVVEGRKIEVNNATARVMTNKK"}
{"Sequence": "GGGAGUUCUACAGUCCGACGAUCUAUUCAGUGAUGUCAUCAACCUCACUGUCCCAGCCCAUGUGUGACUAAAGUGCCCGGUUUUAGCCACAGACAACUGCUUAGAUGUCACCUCUUGGCUGACCAAAGCUGGGUGGAAUUCUCGGGUGCCAA", "RBNS enrichment (R)": 0.259}
{"Sequence": "GGGAGUUCUACAGUCCGACGAUCGAACCAUUUUCAGUUUAUUUACUAUGCAAUAGACAGUCCUUGUUUUGUACUCAGCUAGCUUUGAUUUAAUGUACCACUGCUUUGUCUUUCUGUUACACAUAUGGUUUUGAUGGAAUUCUCGGGUGCCAA", "RBNS enrichment (R)": 0.627}
{"Sequence": "GGGAGUUCUACAGUCCGACGAUCGGGUGUGUCCCAAGGGCACUUGACUCCCGUUUGUGCUUGAGUAUCAGGAAUACCAAAGGGCCCAGGGUGCUCCUACUUGAAUUAUCUCACUGUCUGCUUUUCAAUCACUAUGGAAUUCUCGGGUGCCAA", "RBNS enrichment (R)": 0.909}
{"Sequence": "GGGAGUUCUACAGUCCGACGAUCGCUCUUUCCUCCUUCCCCCUGGGCUGACCAAAAAUGUGCUAUCUACUGUGAGCCCCUUUCCCAAGACCCUGGGGGACGGAGAGACCAUGGAGUGAAUGUAAAAAUGCCACUGGAAUUCUCGGGUGCCAA", "RBNS enrichment (R)": 0.397}
{"data": "Block 3", "target": "Histone acetyltransferase KAT6A, winged helix 2, GST fusion (KAT6A, Homo sapiens, UniProt Q92794, residues 85-181)", "technique": "protein binding microarray", "molecule type": "double-stranded DNA, one strand shown", "medium": "in vitro", "concentration": "not given", "notes": "8-mer, flanks averaged, mean of 2 arrays, mostly near background", "relative to": "not given", "reading": "higher = stronger binding", "Target sequence (chain)": "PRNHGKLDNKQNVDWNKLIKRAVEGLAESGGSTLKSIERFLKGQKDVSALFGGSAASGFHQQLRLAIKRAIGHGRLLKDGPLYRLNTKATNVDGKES"}
{"Sequence": "AACTCCTA", "E-score": -0.0205}
{"Sequence": "CTAGTCGC", "E-score": -0.0912}
{"Sequence": "AAGTGACC", "E-score": -0.0657}
{"data": "Single results of other studies"}
{"Substance": "PhoQ, residues 284 288 289 292 302 303 TYGVAM", "target": "PhoP, residues 12 14 15 18 19 NHFIF (Escherichia coli, UniProt P23836)", "test": "Sort-seq, item: YFP reporter", "system": "E. coli", "setting": "PhoQ-PhoP variant library, added: 10 µM Mg2+", "scale": "relative to: high Mg2+ state, higher = stronger signaling", "measurement": "fold induction", "value": 20.8}
{"note": "For quick reference, copied from above (block 2):"}
{"Sequence": "GGGAGUUCUACAGUCCGACGAUCUAUUCAGUGAUGUCAUCAACCUCACUGUCCCAGCCCAUGUGUGACUAAAGUGCCCGGUUUUAGCCACAGACAACUGCUUAGAUGUCACCUCUUGGCUGACCAAAGCUGGGUGGAAUUCUCGGGUGCCAA", "RBNS enrichment (R)": 0.259}
